# Assay results collected from several papers.
# A part holds a random share of what one study measured.

# Set 1 — method: protein binding microarray; form: double-stranded DNA, one strand shown; matrix: in vitro; concentration: not given; relative to: not given; reading: higher = stronger binding
# Target: Histone acetyltransferase KAT6A, winged helix 2, GST fusion (KAT6A, Homo sapiens, UniProt Q92794, residues 85-181)
# Setting: 8-mer, flanks averaged, mean of 2 arrays, mostly near background
# Construct (chain): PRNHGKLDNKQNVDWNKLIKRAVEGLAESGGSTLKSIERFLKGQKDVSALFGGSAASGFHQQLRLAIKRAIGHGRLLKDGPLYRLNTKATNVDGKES
Strand,E-score
ACTAGGGA,-0.132
GATTTGGA,-0.12
AAGCCTCA,-0.0362
CCTATGCC,-0.175
GTGAATCA,-0.103
AAACATAT,-0.000805
CCCCCAGG,0.00118
AGCCCCCC,-0.22
AATGCATG,-0.0479
CTCGCCCA,0.164
CGGCAGAG,0.0645
AGCATCAA,0.172
CAGGATAA,-0.0148

# Set 2 — method: RNA Bind-n-Seq; form: RNA; matrix: in vitro; concentration: 1 µM; setting: whole 134-nt RNA, ends assumed; with: 150 mM KCl; relative to: input library; reading: higher = stronger binding
# Target: Ras GTPase-activating protein-binding protein 1, C-terminal RGG region (G3BP1, Homo sapiens, UniProt Q13283)
# Chain of UniProt Q13283 (whole entry, looked up): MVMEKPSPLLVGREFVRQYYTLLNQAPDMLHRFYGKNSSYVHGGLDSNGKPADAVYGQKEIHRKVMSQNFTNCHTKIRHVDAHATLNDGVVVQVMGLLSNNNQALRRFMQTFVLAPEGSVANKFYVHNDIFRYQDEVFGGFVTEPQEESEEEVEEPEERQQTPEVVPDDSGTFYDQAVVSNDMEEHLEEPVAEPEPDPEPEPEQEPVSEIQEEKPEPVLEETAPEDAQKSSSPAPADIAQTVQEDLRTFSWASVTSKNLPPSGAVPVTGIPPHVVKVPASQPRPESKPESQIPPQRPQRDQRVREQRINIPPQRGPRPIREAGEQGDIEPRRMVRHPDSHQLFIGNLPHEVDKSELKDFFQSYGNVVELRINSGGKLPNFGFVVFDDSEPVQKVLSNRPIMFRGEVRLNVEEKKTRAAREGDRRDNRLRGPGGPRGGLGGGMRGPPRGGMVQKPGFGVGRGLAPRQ
Strand,log2 enrichment
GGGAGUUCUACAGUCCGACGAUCUCCUGUGCUACACAUCGUAUGUACCGAAUCGGGAAAAAAAGGGAAAGGGAAAAAAAGGGAAAGUAUUAUGUUACGCCGUUCGGAUCUGCAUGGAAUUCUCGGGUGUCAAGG,-0.829
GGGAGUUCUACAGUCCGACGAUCUAGCCAAGAGUCGAAGCUAAACCAGAAGUUCAAUCUCAGCCACCUCGUGUGCGUGAACAACGACCUAGAGAACGACCUGGUUUUCCUCCUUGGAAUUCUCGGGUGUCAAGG,-0.629
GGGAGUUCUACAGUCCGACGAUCGCAGGAAGUAAAAACAAAUGGAAAUGCUUCGGAUAGUGGCAGGGGUGGGGGUUGCUAAGGAAAGGGUGGGAAGGGAGUGGGUAAAGAGUUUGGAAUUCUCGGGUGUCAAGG,2.05
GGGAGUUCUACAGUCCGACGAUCAAGUCCUGUGCUACACAUCGUAUGUACCGAAUCGGGGAAAAGGAAAAGGAAAAGGGAAAGUAUUAUGUUACGCCGUUCGGAUCUGCACUUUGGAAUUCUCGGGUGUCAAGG,-1.77
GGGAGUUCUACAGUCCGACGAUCGUCCUGUGCUACACAUCGUAUGUACCGAAUCGGGGAAAAAGGGGAAAAAGGGGAGGGGAAAGUAUUAUGUUACGCCGUUCGGAUCUGCACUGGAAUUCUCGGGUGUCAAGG,1.79
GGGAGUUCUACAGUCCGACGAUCUCCUGUGCUACACAUCGUAUGUACCGAAUCGGGGUUUGGGGUUUUUGGGGAAAAAGGGGAAAGUAUUAUGUUACGCCGUUCGGAUCUGCAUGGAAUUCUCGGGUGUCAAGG,1.95
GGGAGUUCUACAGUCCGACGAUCAGUCCUGUGCUACACAUCGUAUGUACCGAAUCGGCCCCCGGGGCCCCCGGGCCCCCGGAAAGUAUUAUGUUACGCCGUUCGGAUCUGCACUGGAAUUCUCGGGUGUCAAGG,-2.06
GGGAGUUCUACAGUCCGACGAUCAAGUCCUGUGCUACACAUCGUAUGUACCGAAUCGGGGUUUUGGGUUUUGGGUUUUGGAAAGUAUUAUGUUACGCCGUUCGGAUCUGCACUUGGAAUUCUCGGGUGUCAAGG,-1.06
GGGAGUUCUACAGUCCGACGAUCUCAGCAACCACCUCAACUCAUUGACUCCGCCAACAUCCGUCAGGAGGAUGCCUUUGAUAACAACAGUGACAUUGCUGAAGAUGGUGGCCAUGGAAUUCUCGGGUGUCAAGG,-1.75

# Set 3 — method: protein-binding microarray; form: double-stranded DNA, one strand shown; matrix: in vitro; concentration: 2540 nM top; setting: 60-bp whole probe; with: salmon DNA 0.4 mg/ml; relative to: random background probes; reading: higher = stronger binding; shared flanks, not repeated: GCCTAGCAC … GTCTTGATTCGCTTGACGCTGCTG
# Target: Interferon regulatory factor 3, full length, phosphomimetic (IRF3, Homo sapiens, UniProt Q14653, residues 1-427, S386D/S396D/S398D/S402D/T404D/S405D)
# Target sequence (chain): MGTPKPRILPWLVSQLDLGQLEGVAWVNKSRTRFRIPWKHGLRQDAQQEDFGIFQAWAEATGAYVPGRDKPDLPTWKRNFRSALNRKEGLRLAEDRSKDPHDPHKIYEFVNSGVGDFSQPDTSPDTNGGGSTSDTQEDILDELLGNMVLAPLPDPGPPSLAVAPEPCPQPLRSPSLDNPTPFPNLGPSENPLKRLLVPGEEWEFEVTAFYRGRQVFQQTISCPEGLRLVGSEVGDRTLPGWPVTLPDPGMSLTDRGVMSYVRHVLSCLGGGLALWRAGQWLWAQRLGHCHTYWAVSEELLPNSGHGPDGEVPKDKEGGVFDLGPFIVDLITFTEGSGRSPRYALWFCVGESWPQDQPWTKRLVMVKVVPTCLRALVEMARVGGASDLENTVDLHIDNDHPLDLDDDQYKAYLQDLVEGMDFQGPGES
Strand,fitted relative affinity
GACGATCTAAGTATCGAGACGTGCTAG,0.455 z-score
GATGAACTGGGGACTGGAGACGTGCTA,-0.95 z-score
TTAGGTATCGACTATAGGTTAGTGCTA,0.17 z-score
TCAAGACTTTCTTTCAAACTGTGCTAG,0.534 z-score
TTAGATATCGGGTATCTATTAGTGCTA,0.237 z-score
GACGGTTTCCTACTGCTGACGTGCTAG,5.18 z-score
GACGATATCGGTCTCGAGACGTGCTAG,1.43 z-score
GACGGTTTCCTCCTCCTGACGTGCTAG,4.91 z-score

# Single results of other studies
Molecule,target,test,system,setting,scale,quantity,value
"PhoQ, residues 284 288 289 292 302 303 HSYLQF","PhoP, residues 12 14 15 18 19 NQFFI (Escherichia coli, UniProt P23836)","Sort-seq, measured: YFP reporter",E. coli,"PhoQ-PhoP variant library, with: 10 µM Mg2+","relative to: high Mg2+ state, higher = stronger signaling",fold induction,18.7

# Excerpt of the above (set 1):
Strand,E-score
AGCCCCCC,-0.22
AATGCATG,-0.0479
CTCGCCCA,0.164
CGGCAGAG,0.0645
AGCATCAA,0.172
